Experimental data collected from several papers.
Each line is one published result; not all experiments were run side by side. ± gives the spread as reported.
Chain of UniProt O95835 (whole entry, looked up): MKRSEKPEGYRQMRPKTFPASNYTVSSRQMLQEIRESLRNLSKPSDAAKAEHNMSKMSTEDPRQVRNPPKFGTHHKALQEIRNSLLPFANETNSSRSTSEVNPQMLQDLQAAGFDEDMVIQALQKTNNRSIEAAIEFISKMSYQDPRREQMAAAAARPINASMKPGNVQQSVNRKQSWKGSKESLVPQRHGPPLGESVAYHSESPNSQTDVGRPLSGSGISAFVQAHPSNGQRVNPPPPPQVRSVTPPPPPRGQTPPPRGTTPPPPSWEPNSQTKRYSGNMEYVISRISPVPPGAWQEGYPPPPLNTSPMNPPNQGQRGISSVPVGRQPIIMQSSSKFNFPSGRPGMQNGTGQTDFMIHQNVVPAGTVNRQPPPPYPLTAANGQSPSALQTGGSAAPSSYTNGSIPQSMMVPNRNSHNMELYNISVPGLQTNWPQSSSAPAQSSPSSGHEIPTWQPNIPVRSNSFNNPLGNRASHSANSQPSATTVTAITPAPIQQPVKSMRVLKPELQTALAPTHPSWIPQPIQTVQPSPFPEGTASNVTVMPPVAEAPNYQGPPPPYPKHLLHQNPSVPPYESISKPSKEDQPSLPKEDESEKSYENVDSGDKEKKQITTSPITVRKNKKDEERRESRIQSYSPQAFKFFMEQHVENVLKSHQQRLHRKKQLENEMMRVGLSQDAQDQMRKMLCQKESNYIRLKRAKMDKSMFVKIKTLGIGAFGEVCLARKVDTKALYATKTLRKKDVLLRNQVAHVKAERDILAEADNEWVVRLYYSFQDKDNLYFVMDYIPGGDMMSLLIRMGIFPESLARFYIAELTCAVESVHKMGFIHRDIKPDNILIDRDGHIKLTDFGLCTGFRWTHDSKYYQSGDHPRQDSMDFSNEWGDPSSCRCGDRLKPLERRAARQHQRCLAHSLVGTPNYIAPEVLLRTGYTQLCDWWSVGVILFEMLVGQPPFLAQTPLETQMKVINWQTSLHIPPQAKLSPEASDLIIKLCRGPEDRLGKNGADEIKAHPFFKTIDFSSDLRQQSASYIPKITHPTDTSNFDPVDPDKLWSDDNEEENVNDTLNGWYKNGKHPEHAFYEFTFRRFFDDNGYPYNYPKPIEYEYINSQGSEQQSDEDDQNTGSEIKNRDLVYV

Structure (SMILES) | target or system | assay | system | conditions | how to read | quantity | result
CCCC[C@H]1C(=O)N(C)[C@@H](CCCC)C(=O)N[C@@H](CCCNC(=O)CN2CCN(CC(=O)O)CCN(CC(=O)O)CCN(CC(=O)O)CC2)C(=O)N[C@H](C(=O)NCC(N)=O)CSCC(=O)N[C@@H](Cc2ccc(O)cc2)C(=O)N(C)[C@@H](C)C(=O)N[C@@H](CC(N)=O)C(=O)N2CCC[C@H]2C(=O)N[C@@H](Cc2c[nH]cn2)C(=O)N[C@@H](CC(C)C)C(=O)N(C)CC(=O)N[C@@H](Cc2c[nH]c3ccccc23)C(=O)N[C@@H](CO)C(=O)N[C@@H](Cc2c[nH]c3ccccc23)C(=O)N1C [gallium-68 labelled] |  |  | NOD/SCID mice, CHO-hPD-L1 xenograft, lung | 60 min, atezolizumab 10 mg/kg pretreatment |  | tissue uptake | 7.58 ± 0.99 %ID/g
CC[C@H](C)[C@H](NC(=O)[C@H](CCCNC(=N)N)NC(=O)[C@H](CCCCN)NC(=O)[C@H](Cc1ccc(O)cc1)NC(=O)[C@H](CC(=O)O)NC(=O)[C@H](C)NC(=O)CNC(=O)CCOCCOCCOCCNC(=O)CN1CCN(CC(=O)O)CCN(CC(=O)O)CCN(CC(=O)O)CC1)C(=O)N[C@H](C(=O)N[C@H](C(=O)N[C@@H](CCCCN)C(=O)N[C@H](C(=O)N[C@@H](CC(N)=O)C(N)=O)C(C)C)C(C)C)[C@@H](C)O [copper-64 labelled] |  | ex vivo gamma counting | C57BL/6J male mice, B16-F10 tumour, stomach | intravenous, 1.85 MBq, 40 min |  | tissue uptake | 2.12 ± 0.121 %ID/g
CC[C@H](C)[C@H](NC(=O)[C@@H](Cc1c[nH]c2ccccc12)NC(=O)[C@@H]1CCCN1C(=O)[C@H](CCCCN)NC(=O)[C@H](CCCCN)NC(=O)CCNC(=O)CCNC(=O)CN1CCN(CC(=O)O)CCN(CC(=O)O)CCN(CC(=O)O)CC1)C(=O)N[C@@H](C[Si](C)(C)C)C(=O)O [gallium-68 labelled] |  |  | nude mouse HT-29 xenograft, colon | 90 min |  | tissue uptake | 0.45 ± 0.33 %ID/g
O=C1NC2(CC2)COc2ncc(F)cc2[C@H]2COCCN2c2ccn3ncc1c3n2 |  |  | Sprague-Dawley rat, male, spleen | oral, 20 mg/kg/day, 4 weeks dosing, end of recovery |  | organ-to-brain weight ratio | 56.9 ± 13.4%
CN(C)[C@H]1C[C@@]23CC[C@@]4(O2)C(=CC[C@]2(C)[C@@H](c5ccc6ccncc6c5)CC[C@H]24)C=C3[C@@H](O)[C@@H]1O | Serine/threonine-protein kinase LATS1 (LATS1, Homo sapiens, UniProt O95835) | ATP probe labelling, inhibitor, KiNativ profiling |  | 0.1 µM |  | inhibition | 1%
COc1ccccc1-c1n[nH]c2nc(NC3CCN(C(=O)Cc4ccc(F)cc4F)CC3)ncc12 |  | bead binding, competition bead pull-down, item: LINJ.28.2080 | Leishmania donovani axenic amastigote extract | 10 µM | baseline: vehicle | relative abundance | 0.86
CC[C@H](C)[C@H](NC(=O)[C@H](CCCCN)NC(=O)CNC(=O)[C@H](CC(C)C)NC(=O)[C@H](Cc1ccccc1)NC(=O)[C@H](CCCCN)NC(=O)[C@H](CO)NC(=O)[C@H](Cc1ccccc1)NC(=O)[C@H](Cc1c[nH]c2ccccc12)NC(=O)[C@H](CCC(N)=O)NC(=O)[C@@H](NC(=O)[C@H](Cc1ccccc1)NC(=O)CCCCCNC(=O)CN1CCN(CC(=O)O)CCN(CC(=O)O)CCN(CC(=O)O)CC1)C(C)C)C(=O)N[C@@H](CCC(=O)O)C(=O)N1CCC[C@H]1C(=O)N[C@@H](CC(=O)O)C(=O)N[C@H](C(=O)N[C@@H](CO)C(=O)N[C@@H](CCC(N)=O)C(=O)N[C@H](C(=O)N[C@@H](CCC(N)=O)C(=O)N[C@@H](CC(=O)O)C(=O)N1CCC[C@H]1C(=O)N[C@@H](CC(N)=O)C(=O)N[C@@H](CC(=O)O)C(=O)N[C@@H](CCC(N)=O)C(=O)N[C@@H](Cc1ccc(O)cc1)C(=O)N[C@@H](CCC(=O)O)C(=O)N1CCC[C@H]1C(=O)N[C@@H](Cc1ccccc1)C(=O)O)C(C)C)C(C)C [copper-64 labelled] |  |  | C57BL/6 mice, male, tumour-free, spleen | 0.5 h |  | tissue uptake | 2.72 ± 0.3 %ID/g
CSCC[C@H](NC(=O)CNC(=O)[C@H](CCCCN)NC(=O)[C@H](CC(C)C)NC(=O)[C@@H]1CCCN1C(=O)[C@H](CO)NC(=O)[C@H](Cc1c[nH]cn1)NC(=O)[C@H](Cc1c[nH]c2ccccc12)NC(=O)[C@H](CCCNC(=N)N)NC(=O)[C@H](CC(C)C)NC(=O)[C@H](CCCNC(=N)N)NC(=O)[C@H](Cc1c[nH]c2ccccc12)NC(=O)[C@H](CS)NC(=O)CCCCCNC(=O)CN1CCN(CC(=O)O)CCN(CC(=O)O)CCN(CC(=O)O)CC1)C(=O)O [copper-64 labelled] |  | ex vivo biodistribution | male C57BL/6J mice, spleen | intravenous, 1.85 MBq, 18 h, B16-F10 tumour-bearing |  | tissue uptake | 1.33 %ID/g
CC(C)(C)C(=O)OCOP(=O)(OCOC(=O)C(C)(C)C)C1CCCN(O)C1=O (stereo not drawn) | TK-10 |  |  |  |  | GI50 | 537 nM
C[C@H](O)[C@@H](NC(=O)[C@H]1CCCN1C(=O)[C@@H](CCCCN)NC(=O)[C@@H](CO)NC(=O)[C@@H](Cc1ccc(O)cc1)NC(=O)[C@@H](CC(N)=O)NC(=O)CCOCCOCCOCCNC(=O)CN1CCN(CC(=O)O)CCN(CC(=O)O)CCN(CC(=O)O)CC1)C(=O)N[C@H](CC(=O)O)C(=O)N[C@H](CCCNC(=N)N)C(=O)N[C@H](CCC(N)=O)C(=O)N[C@H](Cc1ccc(O)cc1)C(=O)N[C@H](Cc1c[nH]cn1)C(=O)N[C@H](Cc1ccccc1)C(N)=O [copper-64 labelled] |  |  | C57BL/6J mice, thymus | intravenous, 1.85 MBq, 1 h, radiolabelled |  | tissue uptake | 0.17 ± 0.01 %ID/g
CC[C@H](C)[C@H](NC(=O)[C@H](CCCNC(=N)N)NC(=O)[C@H](CCCCN)NC(=O)[C@H](Cc1ccc(O)cc1)NC(=O)[C@H](CC(=O)O)NC(=O)[C@H](C)NC(=O)CNC(=O)CCOCCOCCOCCNC(=O)CN1CCN(CC(=O)O)CCN(CC(=O)O)CCN(CC(=O)O)CC1)C(=O)N[C@H](C(=O)N[C@@H](CC(C)C)C(=O)N[C@@H](CCCCN)C(=O)N[C@H](C(=O)N[C@@H](CC(N)=O)C(N)=O)C(C)C)[C@@H](C)O [copper-64 labelled] |  | ex vivo gamma counting | C57BL/6J male mice, B16-F10 tumour, lung | intravenous, 1.85 MBq, 40 min |  | tissue uptake | 1.58 ± 0.229 %ID/g
CN1Cc2cc(Cl)ccc2-n2c(nnc2C2CCN(c3cccc([18F])n3)CC2)C1 |  |  | C57BL/6 mouse male, liver | intravenous, 3.7 MBq, 5 min |  | tissue uptake | 26.4 ± 3.27 %ID/g

A few entries again:
Structure (SMILES) | target or system | assay | system | conditions | how to read | quantity | result
COc1ccccc1-c1n[nH]c2nc(NC3CCN(C(=O)Cc4ccc(F)cc4F)CC3)ncc12 |  | bead binding, competition bead pull-down, item: LINJ.28.2080 | Leishmania donovani axenic amastigote extract | 10 µM | baseline: vehicle | relative abundance | 0.86
